Experimental data gathered from unrelated publications.
Several values in a cell are separate wells, animals, samples, runs or records. Numbers after ± are the reported error.
T1: riboswitch RNA yjdF aptamer, L3 replaced by GAAA (Bacillus subtilis); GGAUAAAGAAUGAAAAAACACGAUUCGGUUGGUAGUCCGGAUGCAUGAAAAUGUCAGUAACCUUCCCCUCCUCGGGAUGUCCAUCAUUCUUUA
T2: ssDNA, aptamer; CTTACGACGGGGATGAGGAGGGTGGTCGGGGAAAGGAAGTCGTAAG
Chain of UniProt Q16774 (whole entry, looked up): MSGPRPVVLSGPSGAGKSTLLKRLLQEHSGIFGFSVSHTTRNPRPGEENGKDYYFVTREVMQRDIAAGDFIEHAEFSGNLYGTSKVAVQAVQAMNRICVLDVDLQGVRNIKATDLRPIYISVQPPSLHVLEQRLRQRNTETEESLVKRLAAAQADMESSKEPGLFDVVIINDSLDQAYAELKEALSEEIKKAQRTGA
Chain of UniProt Q8NER1 (whole entry, looked up): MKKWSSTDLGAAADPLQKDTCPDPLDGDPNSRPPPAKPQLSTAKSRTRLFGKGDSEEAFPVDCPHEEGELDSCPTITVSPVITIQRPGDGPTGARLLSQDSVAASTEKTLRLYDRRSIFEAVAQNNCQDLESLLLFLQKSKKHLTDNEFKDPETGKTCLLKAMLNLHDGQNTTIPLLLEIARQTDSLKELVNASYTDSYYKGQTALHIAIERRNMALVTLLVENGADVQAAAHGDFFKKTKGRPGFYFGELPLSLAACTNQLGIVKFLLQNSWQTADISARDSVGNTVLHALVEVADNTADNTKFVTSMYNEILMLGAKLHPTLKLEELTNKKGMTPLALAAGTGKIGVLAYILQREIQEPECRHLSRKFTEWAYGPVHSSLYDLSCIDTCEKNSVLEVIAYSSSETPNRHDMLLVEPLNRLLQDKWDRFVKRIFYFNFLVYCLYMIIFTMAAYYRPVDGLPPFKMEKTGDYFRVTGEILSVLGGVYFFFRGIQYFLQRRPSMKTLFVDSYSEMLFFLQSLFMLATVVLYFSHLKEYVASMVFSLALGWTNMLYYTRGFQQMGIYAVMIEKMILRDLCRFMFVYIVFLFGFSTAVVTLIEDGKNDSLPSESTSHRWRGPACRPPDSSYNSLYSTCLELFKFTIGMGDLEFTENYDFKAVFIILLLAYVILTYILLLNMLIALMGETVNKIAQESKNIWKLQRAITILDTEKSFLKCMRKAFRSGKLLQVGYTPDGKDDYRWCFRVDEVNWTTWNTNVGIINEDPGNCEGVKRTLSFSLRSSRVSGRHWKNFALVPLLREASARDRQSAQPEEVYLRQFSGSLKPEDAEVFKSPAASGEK
Chain of UniProt Q96NY8 (whole entry, looked up): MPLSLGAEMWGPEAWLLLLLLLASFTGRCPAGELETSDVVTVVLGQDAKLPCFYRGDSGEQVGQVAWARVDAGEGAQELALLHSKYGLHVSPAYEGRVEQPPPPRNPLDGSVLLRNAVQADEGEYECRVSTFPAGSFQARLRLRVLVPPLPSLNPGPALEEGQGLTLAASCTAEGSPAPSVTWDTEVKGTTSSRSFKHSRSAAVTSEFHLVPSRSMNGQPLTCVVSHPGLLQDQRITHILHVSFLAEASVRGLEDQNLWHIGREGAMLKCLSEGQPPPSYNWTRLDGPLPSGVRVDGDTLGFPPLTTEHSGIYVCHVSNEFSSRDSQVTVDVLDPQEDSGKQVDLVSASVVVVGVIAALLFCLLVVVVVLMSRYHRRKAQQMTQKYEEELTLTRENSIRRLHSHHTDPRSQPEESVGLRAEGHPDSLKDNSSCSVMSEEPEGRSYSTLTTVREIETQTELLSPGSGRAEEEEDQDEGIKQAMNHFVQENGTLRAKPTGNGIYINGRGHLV
Chain of UniProt P41743 (whole entry, looked up): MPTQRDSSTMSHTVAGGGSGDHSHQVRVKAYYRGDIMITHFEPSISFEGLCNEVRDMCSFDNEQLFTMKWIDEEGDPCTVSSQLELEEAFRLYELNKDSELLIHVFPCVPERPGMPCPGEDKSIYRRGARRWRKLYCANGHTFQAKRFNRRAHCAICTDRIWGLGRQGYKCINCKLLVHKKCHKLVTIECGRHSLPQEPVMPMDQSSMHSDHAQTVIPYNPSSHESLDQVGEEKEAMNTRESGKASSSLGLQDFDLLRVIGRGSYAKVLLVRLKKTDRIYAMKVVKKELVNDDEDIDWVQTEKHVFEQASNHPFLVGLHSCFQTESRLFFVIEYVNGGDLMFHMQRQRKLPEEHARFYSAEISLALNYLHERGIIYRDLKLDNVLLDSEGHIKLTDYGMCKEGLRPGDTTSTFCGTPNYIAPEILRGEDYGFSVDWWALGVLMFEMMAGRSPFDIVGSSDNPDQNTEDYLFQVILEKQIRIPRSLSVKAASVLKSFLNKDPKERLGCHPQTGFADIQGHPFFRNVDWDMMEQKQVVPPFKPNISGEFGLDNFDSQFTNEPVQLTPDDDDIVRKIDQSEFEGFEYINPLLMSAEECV
Chain of UniProt Q07011 (whole entry, looked up): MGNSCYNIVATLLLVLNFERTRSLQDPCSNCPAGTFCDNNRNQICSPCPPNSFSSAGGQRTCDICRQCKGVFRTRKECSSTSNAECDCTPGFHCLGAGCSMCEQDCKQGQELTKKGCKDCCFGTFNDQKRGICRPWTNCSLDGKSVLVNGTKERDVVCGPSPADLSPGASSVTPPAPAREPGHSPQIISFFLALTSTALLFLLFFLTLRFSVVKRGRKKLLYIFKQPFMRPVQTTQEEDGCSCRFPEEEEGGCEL
Chain of UniProt P05164 (whole entry, looked up): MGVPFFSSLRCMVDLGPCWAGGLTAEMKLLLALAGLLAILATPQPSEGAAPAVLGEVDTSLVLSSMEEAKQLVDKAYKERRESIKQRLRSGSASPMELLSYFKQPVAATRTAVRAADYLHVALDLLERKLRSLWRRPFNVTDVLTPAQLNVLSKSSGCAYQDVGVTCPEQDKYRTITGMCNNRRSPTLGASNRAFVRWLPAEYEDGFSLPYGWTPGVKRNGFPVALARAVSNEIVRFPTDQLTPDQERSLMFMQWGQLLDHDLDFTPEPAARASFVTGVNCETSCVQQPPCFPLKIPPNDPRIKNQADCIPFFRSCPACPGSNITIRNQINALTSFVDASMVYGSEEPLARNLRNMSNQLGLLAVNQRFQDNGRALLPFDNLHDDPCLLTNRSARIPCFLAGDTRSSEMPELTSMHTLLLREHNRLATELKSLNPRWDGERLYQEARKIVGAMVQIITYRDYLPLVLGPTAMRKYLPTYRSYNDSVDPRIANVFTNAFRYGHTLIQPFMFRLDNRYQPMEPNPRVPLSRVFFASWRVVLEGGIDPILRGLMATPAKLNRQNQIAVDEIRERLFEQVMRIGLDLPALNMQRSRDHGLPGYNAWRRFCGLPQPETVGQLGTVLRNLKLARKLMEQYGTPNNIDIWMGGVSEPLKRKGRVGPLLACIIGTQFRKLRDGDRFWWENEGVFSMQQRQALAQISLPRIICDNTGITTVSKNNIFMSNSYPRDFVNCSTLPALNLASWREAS
Chain of UniProt P11388 (whole entry, looked up): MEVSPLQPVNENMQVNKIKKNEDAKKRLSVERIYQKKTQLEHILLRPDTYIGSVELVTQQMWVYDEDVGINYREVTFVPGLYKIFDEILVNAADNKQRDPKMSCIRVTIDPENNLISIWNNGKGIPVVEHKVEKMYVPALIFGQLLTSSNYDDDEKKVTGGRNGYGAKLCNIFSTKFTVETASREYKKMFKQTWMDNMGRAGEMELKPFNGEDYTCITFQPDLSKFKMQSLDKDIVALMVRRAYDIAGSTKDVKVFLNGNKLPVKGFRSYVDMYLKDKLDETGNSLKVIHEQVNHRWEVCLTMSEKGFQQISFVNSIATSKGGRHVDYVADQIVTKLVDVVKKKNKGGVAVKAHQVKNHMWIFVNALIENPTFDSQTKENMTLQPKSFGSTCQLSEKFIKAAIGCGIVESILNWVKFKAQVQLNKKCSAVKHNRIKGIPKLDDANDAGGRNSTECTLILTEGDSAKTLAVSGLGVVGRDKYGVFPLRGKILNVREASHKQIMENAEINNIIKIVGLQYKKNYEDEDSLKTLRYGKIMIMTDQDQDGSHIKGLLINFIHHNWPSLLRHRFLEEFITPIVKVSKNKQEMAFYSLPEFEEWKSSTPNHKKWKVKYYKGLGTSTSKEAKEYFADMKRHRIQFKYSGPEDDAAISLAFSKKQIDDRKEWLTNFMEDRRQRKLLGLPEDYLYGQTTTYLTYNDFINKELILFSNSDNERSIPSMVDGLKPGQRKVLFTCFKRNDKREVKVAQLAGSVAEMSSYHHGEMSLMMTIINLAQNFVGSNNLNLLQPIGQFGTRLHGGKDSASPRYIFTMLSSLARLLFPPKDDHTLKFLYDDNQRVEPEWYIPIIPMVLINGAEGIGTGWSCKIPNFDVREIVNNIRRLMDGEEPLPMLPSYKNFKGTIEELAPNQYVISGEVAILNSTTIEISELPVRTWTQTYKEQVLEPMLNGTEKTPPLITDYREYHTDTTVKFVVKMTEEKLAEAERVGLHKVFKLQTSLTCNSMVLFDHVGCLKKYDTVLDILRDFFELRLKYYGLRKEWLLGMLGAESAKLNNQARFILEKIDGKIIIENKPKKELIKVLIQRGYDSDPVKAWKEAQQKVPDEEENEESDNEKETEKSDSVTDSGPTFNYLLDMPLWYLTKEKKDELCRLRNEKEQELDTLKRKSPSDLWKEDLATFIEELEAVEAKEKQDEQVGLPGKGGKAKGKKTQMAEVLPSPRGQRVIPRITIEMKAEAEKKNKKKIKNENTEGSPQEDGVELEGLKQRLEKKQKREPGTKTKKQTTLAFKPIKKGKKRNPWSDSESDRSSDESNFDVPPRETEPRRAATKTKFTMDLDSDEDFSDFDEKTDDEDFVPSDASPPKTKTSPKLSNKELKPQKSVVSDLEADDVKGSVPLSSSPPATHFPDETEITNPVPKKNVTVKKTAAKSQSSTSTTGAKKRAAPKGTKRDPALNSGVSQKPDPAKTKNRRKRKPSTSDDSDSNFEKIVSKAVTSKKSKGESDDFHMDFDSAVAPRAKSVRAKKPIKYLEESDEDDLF
Chain of UniProt P47898 (whole entry, looked up): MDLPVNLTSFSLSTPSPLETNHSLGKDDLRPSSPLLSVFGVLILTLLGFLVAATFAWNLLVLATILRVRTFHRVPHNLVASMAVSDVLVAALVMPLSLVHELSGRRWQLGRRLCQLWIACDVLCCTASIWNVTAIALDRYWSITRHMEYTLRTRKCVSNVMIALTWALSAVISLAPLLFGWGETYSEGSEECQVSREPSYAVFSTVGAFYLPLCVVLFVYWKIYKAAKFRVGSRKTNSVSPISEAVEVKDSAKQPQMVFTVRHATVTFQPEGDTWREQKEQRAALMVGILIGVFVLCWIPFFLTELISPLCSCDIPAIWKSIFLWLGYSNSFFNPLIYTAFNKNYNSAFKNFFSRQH

CC[C@@H]1[C@H](F)C(=O)N[C@@H]1COc1nccc2cc(C(N)=O)c(OC)cc12 — inhibition (PRKCI (Homo sapiens, UniProt P41743); ATP probe binding, KiNativ profiling, item: Lys2 probe site; THP-1 cell lysate; 0.04 mM): -0.9%
CCCC[C@@H]1NC(=O)[C@H](Cc2ccc(O)cc2)NC(=O)[C@@H]2CCCN2C(=O)[C@H](CC(=O)O)NC(=O)[C@H](C)NC(=O)[C@H](Cc2ccccc2)NC(=O)[C@@H]2CSCCC(=O)N3CN(CN(C3)C(=O)CCSC[C@H](NC(C)=O)C(=O)N[C@@H](CC(C)(C)C)C(=O)N3CCC[C@H]3C(=O)N[C@@H](CCC(=O)O)C(=O)N[C@H](CCCCNC(=O)CCc3cn(CCOCCOCCOCCOCCOCCC(=O)N[C@H]4CSCCC(=O)N5CN6CN(C5)C(=O)CCSC[C@H](NC(=O)[C@@H](CC(=O)O)NC(=O)[C@H](Cc5cccc7ccccc57)NC(=O)[C@@H]5CCCN5C4=O)C(=O)N[C@@H](CCSC)C(=O)N[C@@H](CCCCNC(=N)N)C(=O)N[C@@H](CC(=O)O)C(=O)N[C@@H](Cc4c[nH]c5ccccc45)C(=O)N[C@@H](CO)C(=O)N[C@@H]([C@@H](C)O)C(=O)N4CCC[C@H]4C(=O)N4C[C@H](O)C[C@H]4C(=O)N[C@@H](Cc4c[nH]c5ccccc45)C(=O)N[C@H](C(N)=O)CSCCC6=O)nn3)C(=O)N3CCC[C@H]3C(=O)N[C@@H](Cc3ccc(O)cc3)C(=O)N2)C(=O)CCSC[C@@H](C(N)=O)NC1=O — Emax (Tumor necrosis factor receptor superfamily member 9/Nectin-4 (Homo sapiens, UniProt Q07011+Q96NY8); reporter gene, agonist; HT-1376 coculture with reporter cells; reference: background): 45 fold
Cc1ccc(Cc2nnc(NS(=O)(=O)c3ccc(N)cc3)s2)cc1 — Kii (Glutathione hydrolase 1 proenzyme, without transmembrane domain (Homo sapiens, UniProt P19440); GSH hydrolysis, uncompetitive inhibitor; 37 °C, binds gamma-glutamyl enzyme, together with: GSH 5-20 µM): 82 ± 13 µM
O=C(O)c1ccc(Nc2ncc3c(n2)-c2ccc(Cl)cc2C(c2c(F)cccc2F)=NC3)cc1 — remaining activity (human TrkA(h); kinase activity; 1 µM): 32%
Cc1ccc(OC[C@@H]2CN(CCN3CCc4ccccc43)CCO2)cn1 — inhibition (HTR5A (Homo sapiens, UniProt P47898); radioligand binding; concentration not given, together with: [3H]LSD): -18.8%
Cc1cc2nc3[nH]c(=O)[nH]c(=O)c3nc2cc1C — Kd (T1, riboswitch RNA yjdF aptamer, L3 replaced by GAAA (Bacillus subtilis); fluorescence titration; together with: 380 nM lumichrome): 0.09 µM
Nc1ncnc2c1ncn2[C@@H]1O[C@H](COP(=O)(O)O)[C@@H](O)[C@H]1O — Kd (T2, ssDNA, aptamer; ITC): 260 µM
NC/C(=C\F)COc1cccc(Cn2c(=S)[nH]c(=O)c3[nH]cnc32)c1 — H2O2 concentration (Myeloperoxidase (MPO, Homo sapiens, UniProt P05164); H2O2 consumption, inhibitor, H2O2 electrode; 0.25 µM, 0 s): -36.1 µM
COc1cc(CNC(=O)CCCC/C=C/C(C)C)ccc1O — open time constant (TRPV1 (Homo sapiens, UniProt Q8NER1); channel gating, single-channel inside-out patch; 100 nM, component 4 of four): 318 ms
O=S(=O)(O)O — reaction velocity (GUK1 (Homo sapiens, UniProt Q16774); enzyme activity, NADH-coupled; 10 mM, together with: ATP 1000 µM): 0.0919 µM/s and 0.0727 µM/s and 0.0722 µM/s
O=C(CCc1ccccc1)Nc1cc(-c2ccnc(N3CCC(O)CC3)c2)ccn1 — binding response (Nuclear receptor subfamily 4 group A member 1 (NR4A1, Homo sapiens, UniProt P22736); SPR; 10.0 µM): 19.8 RU
O=c1nc(SCc2ccc(C(F)(F)F)cc2)nc(SCc2csc3ccc(Cl)cc23)[nH]1 — mean decatenated DNA (TOP2A (Homo sapiens, UniProt P11388); decatenation; 0.12 µM): 0%

Excerpt of the above:
O=C(CCc1ccccc1)Nc1cc(-c2ccnc(N3CCC(O)CC3)c2)ccn1 — binding response (Nuclear receptor subfamily 4 group A member 1 (NR4A1, Homo sapiens, UniProt P22736); SPR; 10.0 µM): 19.8 RU
